Experimental data from different studies.
Compare with care: the assays were run in different laboratories.
Cell line: T47D

| Compound | effect on | method | tested at | time | reference | endpoint | result |
| --- | --- | --- | --- | --- | --- | --- | --- |
| CC(=C(c1ccc(O)cc1)c1ccc(Cl)cc1)c1ccc(Cl)cc1 | cell growth or viability | SRB |  |  |  | GI50 | 0.89 µM |
| CC(=O)OC[C@H]1O[C@@H](Sc2sc(C(=O)c3ccc(Br)cc3)c(N)c2-c2nc3ccccc3s2)[C@H](OC(C)=O)[C@@H](OC(C)=O)[C@@H]1OC(C)=O |  | SRB | 10 µM | 48 h | untreated | growth | 71.5% |
| CC(Cc1ccc(Cl)cc1)=C(c1ccc(Cl)cc1)c1ccc(OCCN(C)C)cc1 | cell growth or viability | SRB |  |  |  | GI50 | 3.83 µM |
| CCCCCCCCCCCCn1c(-c2cccnc2)nc(-c2ccc(C)cc2)c1-c1ccc(C)cc1 | cell growth or viability | SRB |  | 48 h |  | IC50 | > 100 µM |
| Cc1ccc(C2=Nn3c(N/N=C4/C(=O)Nc5ccc(Br)cc54)nnc3SC2)cc1 | cell growth or viability | SRB | 10 µM |  |  | inhibition | 12% |
| CC(=O)OC[C@H]1O[C@@H](Sc2sc(C(=O)c3ccc(C)cc3)c(N)c2-c2nc3ccccc3s2)[C@H](OC(C)=O)[C@@H](OC(C)=O)[C@@H]1OC(C)=O |  | SRB | 10 µM | 48 h | untreated | growth | 75.4% |
| COc1ccc(C2=NN(C3=NC(=O)C(=Cc4ccc(O)cc4)S3)C(c3ccc(F)cc3)C2)cc1 (stereo not drawn) |  | annexin V-FITC/PI flow cytometry | concentration not given |  |  | late apoptotic cells | 27.2% |
| CC/C=C\C/C=C\C/C=C\C/C=C\C/C=C\C/C=C\CCC(=O)Nc1ccn(C2OC(CO)C(O)C2(F)F)c(=O)n1 (stereo not drawn) | cell growth or viability | SRB |  |  |  | GI50 | 0.0996 µM |
| CCCCCCCCCCCCCCCCn1c(-c2cccnc2)nc(-c2ccc(C)cc2)c1-c1ccc(C)cc1 | cell growth or viability | SRB |  | 48 h |  | IC50 | > 100 µM |
| COc1ccc(C2=Nn3c(NN=C4C(=O)N(C)c5ccc(Br)cc54)nnc3SC2)cc1 | cell growth or viability | SRB | 10 µM |  |  | inhibition | 18% |
| CCCCCCCCCCn1c(-c2cccnc2)nc(-c2ccc(C)cc2)c1-c1ccc(C)cc1 | cell growth or viability | SRB |  | 24 h |  | IC50 | > 100 µM |
| COc1ccc(C=C2SC(N3N=C(c4cccs4)CC3c3ccc(F)cc3)=NC2=O)cc1 (stereo not drawn) |  | annexin V-FITC/PI flow cytometry | concentration not given |  |  | total apoptotic cells | 25.2% |

Repeated from above:
| Compound | effect on | method | tested at | time | reference | endpoint | result |
| --- | --- | --- | --- | --- | --- | --- | --- |
| CCCCCCCCCCn1c(-c2cccnc2)nc(-c2ccc(C)cc2)c1-c1ccc(C)cc1 | cell growth or viability | SRB |  | 24 h |  | IC50 | > 100 µM |
